Published values of several laboratories.
Protocols differ between the studies behind these lines. Numbers after ± are the reported error.

Compound	cell line	assay	setting	IC50
C[C@H]1[C@H](OC(=O)CCC(=O)O[C@H]2CO[C@H]3[C@@H]2OC[C@H]3O[N+](=O)[O-])O[C@@H]2O[C@@]3(C)CC[C@H]4[C@H](C)CC[C@@H]1[C@@]24OO3	K562/Adr	cell growth or viability, CCK-8	72 h	6.63 µM
CC(C)C[C@H](NC(=O)[C@H](CCCCN)NC(=O)[C@H](CC(C)C)NC(=O)[C@H](CC(C)C)NC(=O)[C@H](CCCCN)NC(=O)[C@H](CCCCN)NC(=O)[C@H](CC(C)C)NC(=O)[C@H](CC(C)C)NC(=O)[C@H](CCCCN)NC(=O)[C@H](CC(C)C)NC(=O)[C@H](CC(C)C)NC(=O)[C@H](CCCCN)NC(=O)[C@H](CCCCN)NC(=O)[C@H](CC(C)C)NC(=O)[C@@H](N)CSSC[C@H](N)C(=O)N[C@@H](CC(C)C)C(=O)N[C@@H](CCC(=O)O)C(=O)N[C@@H](CCC(=O)O)C(=O)N[C@@H](CC(C)C)C(=O)N[C@@H](CC(C)C)C(=O)N[C@@H](Cc1c[nH]cn1)C(=O)N[C@@H](Cc1c[nH]cn1)C(=O)N[C@@H](CC(C)C)C(=O)N[C@@H](CCC(=O)O)C(=O)N[C@@H](CCC(=O)O)C(=O)N[C@@H](CC(C)C)C(=O)N[C@@H](CC(C)C)C(=O)N[C@@H](Cc1c[nH]cn1)C(=O)N[C@@H](Cc1c[nH]cn1)C(N)=O)C(N)=O	HK-2	cell growth or viability, MTT	pH 6	13 µM
C=C(C)CC(OC)C(O)C(=O)NC(OC)C1CC(OC(C)=O)C(C)(C)C(CC(O)C(C)C2Cc3c(C)c(O)cc(O)c3C(=O)O2)O1 (single isomer, unassigned; (+))	A2058	cell growth or viability	–	0.0004 µM
C[C@H]1[C@H](OC(=O)CCC(=O)OCCc2ccc(O)cc2)O[C@@H]2O[C@@]3(C)CC[C@H]4[C@H](C)CC[C@@H]1[C@@]24OO3	RPMI-7951	cell viability, MTT	24 h, without deferoxamine	0.09 ± 0.05 µM
COc1ccc(C(c2c(C)nn(-c3ccccc3)c2O)c2c(C)nn(-c3ccccc3)c2O)cc1OC	HEK293	cell growth or viability, MTT	48 h	> 40 µM
NC1CC1c1ccc(NC(=O)C(CCc2ccccc2)NC(=O)OCc2ccccc2)cc1 (centres unmarked)	MV4-11 (AML)	–	–	8.7 ± 0.9 µM
COC(=O)CC[C@@H](NC(=O)[C@@H](Cc1ccc(OP(=O)(O)O)cc1)NC(=O)[C@@H](Cc1ccccc1)NC(=O)[C@@H](Cc1ccccc1)NC(=O)Cc1ccc2ccccc2c1)C(=O)OC	A2780-res	cell viability	72 h	> 200 µM
CCCCCCCCCCCCN(CCCCCCCCCCCC)C1=[S+][Au-]2([S]1)[c]1ccccc1-c1cccc[c]12	BT-333 glioblastoma	MTT	72 h	89.1 µM
O=C(Cc1ccc2ccccc2c1)N[C@H](Cc1ccc(O)cc1)C(=O)N[C@H](Cc1ccccc1)C(=O)N[C@H](Cc1ccccc1)C(=O)N[C@H](Cc1ccc(O)cc1)C(=O)O	HS5	cell growth or viability, MTT	–	> 500 µg/mL
O=C1C(Cl)=C(Cl)C(=O)c2ccccc21	MOLT-3	cell growth or viability, XTT	48 h	3.61 µM
CC(=O)N[C@@H](Cc1c[nH]c2ccccc12)C(=O)N[C@@H](CCC(=O)O)C(=O)N[C@@H](Cc1c[nH]cn1)C(=O)N[C@@H](CC(=O)O)C(=O)COC(=O)c1c(C)cccc1C	EA.hy926	pyroptosis, inhibitor, propidium iodide uptake	together with: 20 µM Val-boroPro	~2.5 µM
CC[C@H](C)[C@@H]1NC(=O)[C@H](CCCNC(=N)N)NC(=O)C[C@H](c2cccc3ccccc23)NC(=O)[C@@H]2CSSC[C@H](NC(=O)C[C@H](c3cccc4ccccc34)NC(=O)[C@H](CCCNC(=N)N)NC(=O)[C@@H]3CCCN3C(=O)[C@@H]3CCCN3C1=O)C(=O)N[C@@H](Cc1ccccc1)C(=O)N1CCC[C@H]1C(=O)N[C@@H](CC(=O)O)C(=O)N[C@@H](CC(=O)O)C(=O)N[C@@H](Cc1ccccc1)C(=O)N2	BT-474 (HER2+)	cell growth	72 h	2.94 ± 1.05 µM
CSC(=NNC(=O)c1ccc([N+](=O)[O-])cc1)SC	A549 or HCT-116	cytotoxicity, MTT	approximate value	~100 µM
CC(C)C[C@H](NC(=O)[C@H](CC(C)C)NC(=O)[C@H](CCC(=O)O)NC(=O)[C@H](Cc1c[nH]cn1)NC(=O)[C@H](CC(C)C)NC(=O)[C@H](Cc1c[nH]cn1)NC(=O)[C@H](CCC(=O)O)NC(=O)[C@H](CC(C)C)NC(=O)[C@H](CC(C)C)NC(=O)[C@H](CCC(=O)O)NC(=O)[C@H](Cc1c[nH]cn1)NC(=O)[C@@H](N)CC(C)C)C(=O)N[C@@H](CCC(=O)O)C(=O)N[C@@H](Cc1c[nH]cn1)C(N)=O	RG	cell viability, MTT	0.5 h, pH 7.4	> 100 µM
CC(C)C[C@H](NC(=O)[C@H](CC(C)C)NC(=O)[C@H](CC(=O)O)NC(=O)[C@H](CCCCN)NC(=O)[C@H](Cc1ccccc1)NC(=O)CN)C(=O)N[C@@H](CCCCN)C(=O)N[C@H]1CSCc2cccc(c2)CSC[C@@H](C(=O)N[C@@H](CC(C)C)C(=O)N[C@H](C(=O)N[C@@H](CCCCN)C(=O)N[C@H](C(=O)N[C@H](C(=O)N[C@@H](CC(C)C)C(=O)N[C@@H](Cc2ccccc2)C(N)=O)C(C)C)[C@@H](C)O)C(C)C)NC(=O)[C@H](CCCCN)NC(=O)[C@H](C)NC(=O)[C@H](C)NC1=O	U87	cell proliferation, CCK-8	48 h	4.89 µM
O=C(Cc1ccc2ccccc2c1)N[C@H](Cc1ccc(OP(=O)(O)O)cc1)C(=O)N[C@H](Cc1ccccc1)C(=O)N[C@H](Cc1ccccc1)C(=O)N[C@H](Cc1ccc(OP(=O)(O)O)cc1)C(=O)O	HS5	cell growth or viability, MTT	–	> 483 µg/mL
Cc1cc(C)c(-n2ccn(-c3c(C)cc(C)cc3C)c2=[Se])c(C)c1.[Cl][Ag]	LoVo MDR	MTT	72 h	2.3 ± 1 µM
CC(C)C[C@H](NC(=O)[C@H](CCCCN)NC(=O)[C@H](CC(C)C)NC(=O)[C@H](CC(C)C)NC(=O)[C@H](CCCCN)NC(=O)[C@H](CCCCN)NC(=O)[C@H](CC(C)C)NC(=O)[C@H](CC(C)C)NC(=O)[C@H](CCCCN)NC(=O)[C@H](CC(C)C)NC(=O)[C@H](CC(C)C)NC(=O)[C@H](CCCCN)NC(=O)[C@H](CCCCN)NC(=O)[C@H](CC(C)C)NC(=O)[C@@H](N)CSSC[C@H](N)C(=O)N[C@@H](CC(C)C)C(=O)N[C@@H](CCC(=O)O)C(=O)N[C@@H](Cc1c[nH]cn1)C(=O)N[C@@H](CC(C)C)C(=O)N[C@@H](CC(C)C)C(=O)N[C@@H](CCC(=O)O)C(=O)N[C@@H](Cc1c[nH]cn1)C(=O)N[C@@H](CC(C)C)C(=O)N[C@@H](CCC(=O)O)C(=O)N[C@@H](Cc1c[nH]cn1)C(=O)N[C@@H](CC(C)C)C(=O)N[C@@H](CC(C)C)C(=O)N[C@@H](CCC(=O)O)C(=O)N[C@@H](Cc1c[nH]cn1)C(N)=O)C(N)=O	RG	cell viability, MTT	0.5 h, pH 7.4	> 100 µM
C[C@@H]1O[C@@H](O[C@H]2[C@H](O)[C@@H](O)[C@H](OC[C@H]3O[C@@H](O[C@H]4CC[C@@]5(C)[C@@H](CC[C@]6(C)[C@@H]5C=C[C@]57OC[C@@]8(CCC(C)(C)C[C@H]85)[C@@H](O)C[C@]76C)[C@]4(C)CO)[C@H](O)[C@@H](O)[C@@H]3O)O[C@@H]2CO)[C@H](O)[C@H](O)[C@H]1O	HEK293T	cell viability, MTT	48 h	> 100 µM
C#CCSc1nc(Sc2nnnn2C)c2nnn(Cc3ccccc3)c2n1	OCI-AML-3	cell growth or viability, MTS	6 days	2.5 µM
CC(C)C[C@H](NC(=O)[C@H](CCCCN)NC(=O)[C@H](CC(C)C)NC(=O)[C@H](CC(C)C)NC(=O)[C@H](CCCCN)NC(=O)[C@H](CCCCN)NC(=O)[C@H](CC(C)C)NC(=O)[C@H](CC(C)C)NC(=O)[C@H](CCCCN)NC(=O)[C@H](CC(C)C)NC(=O)[C@H](CC(C)C)NC(=O)[C@H](CCCCN)NC(=O)[C@H](CCCCN)NC(=O)[C@@H](N)CC(C)C)C(N)=O	RG	cell viability, MTT	0.5 h, pH 7.4	10.5 µM
C=C(C)CC(OC)C(O)C(=O)NC(OC)C1CC(OC(=O)c2ccccc2)C(C)(C)C(CC(O)C(C)C2Cc3c(C)c(O)cc(O)c3C(=O)O2)O1 (single isomer, unassigned; (-))	IMR-90	cell growth or viability	–	0.081 µM
O=S(=O)([O][Pt]([O]S(=O)(=O)C(F)(F)F)([PH](c1ccccc1)(c1ccccc1)c1ccc[cH-]1)[PH](c1ccccc1)(c1ccccc1)c1ccc[cH-]1)C(F)(F)F.[Fe+2]	SNU80	cell growth, MTT	24 h	70.1 µM

Some of these lines once more:
Compound	cell line	assay	setting	IC50
CC(C)C[C@H](NC(=O)[C@H](CC(C)C)NC(=O)[C@H](CCC(=O)O)NC(=O)[C@H](Cc1c[nH]cn1)NC(=O)[C@H](CC(C)C)NC(=O)[C@H](Cc1c[nH]cn1)NC(=O)[C@H](CCC(=O)O)NC(=O)[C@H](CC(C)C)NC(=O)[C@H](CC(C)C)NC(=O)[C@H](CCC(=O)O)NC(=O)[C@H](Cc1c[nH]cn1)NC(=O)[C@@H](N)CC(C)C)C(=O)N[C@@H](CCC(=O)O)C(=O)N[C@@H](Cc1c[nH]cn1)C(N)=O	RG	cell viability, MTT	0.5 h, pH 7.4	> 100 µM
CC(C)C[C@H](NC(=O)[C@H](CC(C)C)NC(=O)[C@H](CC(=O)O)NC(=O)[C@H](CCCCN)NC(=O)[C@H](Cc1ccccc1)NC(=O)CN)C(=O)N[C@@H](CCCCN)C(=O)N[C@H]1CSCc2cccc(c2)CSC[C@@H](C(=O)N[C@@H](CC(C)C)C(=O)N[C@H](C(=O)N[C@@H](CCCCN)C(=O)N[C@H](C(=O)N[C@H](C(=O)N[C@@H](CC(C)C)C(=O)N[C@@H](Cc2ccccc2)C(N)=O)C(C)C)[C@@H](C)O)C(C)C)NC(=O)[C@H](CCCCN)NC(=O)[C@H](C)NC(=O)[C@H](C)NC1=O	U87	cell proliferation, CCK-8	48 h	4.89 µM
C=C(C)CC(OC)C(O)C(=O)NC(OC)C1CC(OC(=O)c2ccccc2)C(C)(C)C(CC(O)C(C)C2Cc3c(C)c(O)cc(O)c3C(=O)O2)O1 (single isomer, unassigned; (-))	IMR-90	cell growth or viability	–	0.081 µM
